Assay results of several laboratories.
Each line is one published result; not all experiments were run side by side.
Target: Serine/threonine-protein kinase Nek7 (NEK7, Homo sapiens, UniProt Q8TDX7)

COc1c(Cl)cccc1Nc1c(-c2ccncc2C#C[C@@]2(C)CCCN2C(=O)/C=C/CN(C)C)[nH]c2c1C(=O)NCC2  remaining binding (binding, competition with immobilised ligand; 3 µM): 95%
CN1CC[C@@H](COc2cnc(C#N)cc2-c2ccn3nc(NC(=O)C4CC4)cc3c2)C1  inhibition (enzyme activity, inhibitor; 1 µM): -12%
CNC(=O)C1CCN(c2cc(C)c(F)cc2NC(=O)c2ccc(-c3cc(O)ccc3C)c(C)c2)CC1  remaining binding (binding, competition with immobilised ligand; 1 µM): 100%
CNC(=O)C[C@H](Cc1ccc(C#N)cc1)NC(=O)c1cc(-c2ccc(CN[C@H](C)c3ccc(C)cc3)o2)ccc1Cl  activity vs control (enzyme activity, inhibitor; 1 µM): 96%
CN1CCN(Cc2ccc(-c3ccc(CO[C@H]4CCC[C@@H]4NC(=O)c4cc(-c5cnn(C)c5)cnc4N)cc3)cc2)CC1  inhibition (enzyme activity, inhibitor; 0.1 µM): 5%
C=CC(=O)N1CCCC(n2c(=O)c3ncccc3n(Cc3ccc(Oc4ccccc4)cc3)c2=O)C1 (stereo not shown)  remaining binding (cell-free assay, competition with immobilised ligand; 1 µM): 100%
NC(=O)[C@@H](O)C[C@H]1CCc2sc3ncnc(O[C@H]4CC[C@H](N5CCOCC5)CC4)c3c21  inhibition (enzyme activity, inhibitor; 10 µM): 4%
Nc1ncc2c(n1)-c1c([nH]c3ccc(C4=CCOCC4)cc13)CCC2  remaining binding (binding, competition with immobilised ligand; 1 µM): 100%
COc1cc(Nc2nc(C)cc(-c3cnn4nc(OC)ccc34)n2)cc(C(F)(F)F)c1  remaining binding (binding, competition with immobilised ligand; 1 µM): 83%
C=CC(=O)Nc1cccc(-c2cnc3[nH]cc(C(=O)NC(C)(C)C)c3n2)c1  inhibition (enzyme activity, inhibitor; 0.1 µM): 2%
Cc1nc2c(F)cc(-c3nc(Nc4ccc(CNC(=O)CCCCCCC(=O)NO)cc4)ncc3F)cc2n1C(C)C  inhibition (enzyme activity, inhibitor; 1 µM): 24%
CNC1C[S+]2CC[S+]3CC[S+](C1)[Ru-4]321([N]=C=S)[n]2c3ccc(OC)cc3c3c4c(c5cc(F)c[n+]1c5c32)C(=O)NC4=O (stereo not shown)  remaining binding (KinomeScan; 0.1 µM; relative to: untreated): 86%
CCn1cc(C(=O)O)c(=O)c2c(N)c(F)c(NC3CCCCC3)cc21  inhibition (kinase activity; 0.1 µM, with: ATP at Km): 9.3%
Cc1cccc(O[C@H]2CCC[C@@H](C(C)CNCc3ccncc3)C2)c1 (relative stereo)  inhibition (enzyme activity, inhibitor; 1 µM): 3%
C=CC(=O)N1CCc2ccc(-n3c(=O)ccc4cnc5ccc(-c6cnn(C)c6)cc5c43)cc21  remaining binding (KINOMEscan; 1 µM; relative to: DMSO control): 100%
Nc1ncc(-c2cc(-c3cnn(CC(F)(F)F)c3)ncc2F)nc1C(=O)NC1CNCC(F)C1 (stereo not shown)  remaining activity (enzyme activity; 1 µM; relative to: DMSO control): 102%

A few entries again:
C=CC(=O)N1CCCC(n2c(=O)c3ncccc3n(Cc3ccc(Oc4ccccc4)cc3)c2=O)C1 (stereo not shown)  remaining binding (cell-free assay, competition with immobilised ligand; 1 µM): 100%
